Assay results pooled from the literature.
Compare with care: the assays were run in different laboratories. Numbers after ± are the reported error.

CN1C(=O)[C@@H](Cc2ccc(O)c(I)c2)NC(=O)CNC(=O)[C@H](Cc2ccc3ccccc3c2)NC(=O)[C@H](CCCNC(=N)N)NC(=O)[C@H]1CCCNC(=O)c1ccc(CNC(=O)CN2CCN(CC(=O)O)CCN(CC(=O)O)CCN(CC(=O)O)CC2)cc1 [lutetium-177 labelled]  tissue uptake (item: 177Lu radioactivity; female CB-17 SCID mice, Daudi xenograft, tumor; intravenous, 0.16 nmol per mouse, 1 h): 12.4 ± 3.7 %ID/g
O=C([O-])CN1CCN(CC(=O)[O-])CCN(CC(=O)NCCc2ccc3c(c2)C2C=CCC2C(c2cc4c(cc2Br)OCO4)N3)CCN(CC(=O)[O-])CC1.[111In+3] (centres unmarked)  tissue uptake (mice with Hec50 tumour xenograft, pituitary; 1 h): 0.6 ± 0.05 %ID/g
CCCC[C@H](NC(=O)CNC(=O)CNC(=O)CN1CCN(CC(=O)O)CCN(CC(=O)O)CC1)C(=O)N[C@H]1CC(=O)NCCCC[C@@H](C(N)=O)NC(=O)[C@H](Cc2c[nH]c3ccccc23)NC(=O)[C@H](CCCNC(=N)N)NC(=O)[C@@H](Cc2ccccc2)NC(=O)[C@H](Cc2c[nH]cn2)NC1=O [gallium-67 labelled]  tissue uptake (female C57 mice, B16/F1 melanoma, heart; intravenous, 0.037 MBq, 4 h): 0.39 ± 0.17 %ID/g
CCCC[C@H](NC(=O)CN1CCC(NC(=O)CN2CCN(CC(=O)O)CCN(CC(=O)O)CCN(CC(=O)O)CC2)CC1)C(=O)N[C@H]1CC(=O)NCCCC[C@@H](C(N)=O)NC(=O)[C@H](Cc2c[nH]c3ccccc23)NC(=O)[C@H](CCCNC(=N)N)NC(=O)[C@@H](Cc2ccccc2)NC(=O)[C@H](Cc2c[nH]cn2)NC1=O [gallium-68 labelled]  tissue uptake (C57BL/6J mice male B16-F10 tumour, intestine; 2 h post injection, unblocked): 0.4 ± 0.1 %ID/g
CCCC[C@H](NC(=O)CNC(=O)CNC(=O)CN1CCN(CC(=O)O)CCN(CC(=O)O)CCN(CC(=O)O)CC1)C(=O)N[C@H]1CC(=O)NCCCC[C@@H](C(N)=O)NC(=O)[C@H](Cc2c[nH]c3ccccc23)NC(=O)[C@H](CCCNC(=N)N)NC(=O)[C@@H](Cc2ccccc2)NC(=O)[C@H](Cc2c[nH]cn2)NC1=O [gallium-67 labelled]  tissue uptake (female C57 mice, B16/F1 melanoma, blood; intravenous, 0.037 MBq, 2 h): 0.97 ± 0.91 %ID/g
CCCC[C@@H]1NC(=O)[C@@H](NC(=O)[C@H](CCC(=O)O)NC(=O)CNC(=O)CN2CCN(CC(=O)O)CCN(CC(=O)O)CCN(CC(=O)O)CC2)CCCCNC(=O)C[C@@H](C(N)=O)NC(=O)[C@H](C(C)C)NC(=O)[C@@H]2CCCN2C(=O)[C@H](CCCNC(=N)N)NC(=O)CNC(=O)[C@H](Cc2c[nH]c3ccccc23)NC(=O)[C@H](CCCNC(=N)N)NC(=O)[C@@H](Cc2ccccc2)NC(=O)[C@H](Cc2c[nH]cn2)NC(=O)[C@H](CCC(=O)O)NC1=O [gallium-67 labelled]  tissue uptake (C57 mice with B16/F1 melanoma, liver; intravenous, 24 h): 0.24 ± 0.08 %ID/g
N=C(N)NCCC[C@H](NC(=O)CON=C[C@H](F)[C@@H](O)[C@H](O)[C@H](O)CO)C(=O)NCC(=O)N[C@@H](CC(=O)O)C(=O)O [fluorine-18 labelled]  tissue uptake (nude mice U-87 MG tumour, liver; intravenous, 0.5 h): 0.44 ± 0.03 %ID/g
O=C([O-])c1cccc(CN(CCN(Cc2cn(Cc3ccccc3)nn2)Cc2cccc(C(=O)[O-])n2)Cc2cn(Cc3ccccc3)nn2)n1.[64Cu+2]  tissue uptake (healthy athymic nude mice, small intestine; intravenous, 15 min): 63.7 %ID/g
CC(C)[C@H](NC(=O)[C@@H]1CCCN1C(=O)[C@H](CCCNC(=N)N)NC(=O)[C@H](CS)NC(=O)[C@H](Cc1c[nH]c2ccccc12)NC(=O)[C@H](CCCNC(=N)N)NC(=O)[C@@H](Cc1ccccc1)NC(=O)[C@H](Cc1c[nH]cn1)NC(=O)[C@H](CCC(=O)O)NC(=O)[C@H](CS)NC(=O)[C@H](CS)NC(=O)[C@@H]1CC(=O)N[C@@H](CCCNC(=N)N)C(=O)NCC(=O)N[C@@H](CC(=O)O)C(=O)N[C@H](Cc2ccc(O)cc2)C(=O)N1)C(N)=O [technetium-99m labelled]  tissue uptake (female mice, B16/F1 melanoma, kidneys; intravenous, dose not given, 2 h, with: 10 µg NDP-MSH co-injected): 13.3 ± 1.68 %ID/g
O=C([O-])CN1CCN(CC(=O)[O-])CCN(CC(=O)[O-])CCN(CC(=O)[O-])CC1.[64Cu+2]  tissue uptake (healthy athymic nude mice, small intestine; intravenous, 1 h): 1.01 %ID/g
NC12CNCCNCC(NCc3ccc(CNC(=O)CCCC(=O)NCc4ccc(-c5nncnn5)cc4)cc3)(CNCCNC1)CNCCNC2.[64Cu+2]  tissue uptake (athymic nude mice, SW1222 xenograft, kidney; 24 h post-injection, 24 h pretargeting interval, with: huA33-TCO pretargeting): 2 ± 0.24 %ID/g

A few entries again:
CCCC[C@H](NC(=O)CN1CCC(NC(=O)CN2CCN(CC(=O)O)CCN(CC(=O)O)CCN(CC(=O)O)CC2)CC1)C(=O)N[C@H]1CC(=O)NCCCC[C@@H](C(N)=O)NC(=O)[C@H](Cc2c[nH]c3ccccc23)NC(=O)[C@H](CCCNC(=N)N)NC(=O)[C@@H](Cc2ccccc2)NC(=O)[C@H](Cc2c[nH]cn2)NC1=O [gallium-68 labelled]  tissue uptake (C57BL/6J mice male B16-F10 tumour, intestine; 2 h post injection, unblocked): 0.4 ± 0.1 %ID/g
NC12CNCCNCC(NCc3ccc(CNC(=O)CCCC(=O)NCc4ccc(-c5nncnn5)cc4)cc3)(CNCCNC1)CNCCNC2.[64Cu+2]  tissue uptake (athymic nude mice, SW1222 xenograft, kidney; 24 h post-injection, 24 h pretargeting interval, with: huA33-TCO pretargeting): 2 ± 0.24 %ID/g
